Results of several laboratories.
A part holds a random share of what one study measured.

Set 1 — method: RNA Bind-n-Seq; form: RNA; sample: in vitro; tested at: 365 nM; reference: no-protein control; reading: higher = stronger binding
Target: RNA binding protein fox-1 homolog 2, RRM domain, GST-SBP tag (RBFOX2, Homo sapiens, UniProt O43251-10, residues 100-194)
Setting: natural RNA segment, single round, ends assumed
Shared flanks, not repeated: GGGAGUUCUACAGUCCGACGAUC … UGGAAUUCUCGGGUGCCAA
| Oligonucleotide | RBNS enrichment (R) |
| --- | --- |
| UGGAAAACCAGGGAUAUUUUUUUUUCCUCAACUUCUUCUCUUUACUCCCUACCCCUCUCCUCCCUAAUUCUGUCUUCCUUCUCUCCACUCUUUUAAGAUUCAGAGGGUAC | 0.558 |
| UUUUGUUCCUUCAUAGGAAAAAAAUGUAUAAAUUUGUAAAUCUUAAUUCAAAGAUAACUUUUGUGUGGGUAUUGAGUUUGGAUCGGUUUUUUGUCUUGGUGUGGGCUGUG | 1.39 |
| AAUAGUUUACAAGUUAUCCUACUCCACAGAUUUUGGUAUGUUUGUUAUCUGGACAUGAUUUUGCUAUGCAGUUGUGAUAAUAAAAAUUCCAGCUCCUCAGGUUUAACCUC | 0.656 |
| UCCACAUGGAUGACCAGGAACCUGGUCUUGUUGGAGCUGGCAUAGGAGGUUCUACUGUCUUGUCGUCCACUCUUGUCCCUCCCUUCUGUUAUCAAAGUUAAAGCGCCUCU | 0.539 |
| AGGGGCUGGGUCUGCUUCACCAAUCACCCAACCUGAGUCCCCCAGCUUUACCACAGAGCUGCCAACGUCCUUUCACUGUCUCCACACGAUGGCCCAGUAUCCUUGGUUGU | 0.526 |

Set 2 — method: protein binding microarray; form: double-stranded DNA, one strand shown; sample: in vitro; tested at: not given; reference: not given; reading: higher = stronger binding
Target: Histone acetyltransferase KAT6A, winged helix 2, GST fusion (KAT6A, Homo sapiens, UniProt Q92794, residues 85-181)
Setting: 8-mer, flanks averaged, mean of 2 arrays, mostly near background
Construct (chain): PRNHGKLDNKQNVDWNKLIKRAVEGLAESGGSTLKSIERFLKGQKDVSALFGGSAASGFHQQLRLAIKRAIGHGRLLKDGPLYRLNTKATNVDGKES
| Oligonucleotide | E-score |
| --- | --- |
| CCGGAGGA | 0.0349 |
| GCGTTTTA | 0.112 |
| GAGGATGC | -0.0329 |

Set 3 — method: protein-binding microarray; form: double-stranded DNA, one strand shown; sample: in vitro; tested at: 940 nM top; setting: 60-bp whole probe; together with: salmon DNA 0.4 mg/ml; reference: random background probes; reading: higher = stronger binding
Target: Interferon regulatory factor 5, full length, phosphomimetic (IRF5, Homo sapiens, UniProt Q13568-2, residues 1-514, S451D/S453D/S456D/S462D)
| Oligonucleotide | fitted relative affinity |
| --- | --- |
| GCCTAGCACTCAAGTTTCTTTTCTTTACTGTGCTAGGTCTTGATTCGCTTGACGCTGCTG | 2.53 z-score |
| GCCTAGCACTCAACTTTCTACGTCTGACTGTGCTAGGTCTTGATTCGCTTGACGCTGCTG | 0.819 z-score |
| GCCTAGCACGACGAACTGAGTTTCGAGAAGTGCTAGGTCTTGATTCGCTTGACGCTGCTG | 3.19 z-score |
| GCCTAGCACTTAGGTTTCGACACTGGCTTAGTGCTAGTCTTGATTCGCTTGACGCTGCTG | 8.02 z-score |

Other studies, line by line
| Substance | target | assay | test system | setting | scale | endpoint | result |
| --- | --- | --- | --- | --- | --- | --- | --- |
| PhoQ, residues 284 288 289 292 302 303 SSLVEF | PhoP, residues 12 14 15 18 19 DLLYY (Escherichia coli, UniProt P23836) | Sort-seq, refers to: YFP reporter | E. coli | PhoQ-PhoP variant library, together with: 10 µM Mg2+ | reference: high Mg2+ state, higher = stronger signaling | fold induction | 1.35 |

Some of these lines once more (set 3):
| Oligonucleotide | fitted relative affinity |
| --- | --- |
| GCCTAGCACTTAGGTTTCGACACTGGCTTAGTGCTAGTCTTGATTCGCTTGACGCTGCTG | 8.02 z-score |
| GCCTAGCACTCAAGTTTCTTTTCTTTACTGTGCTAGGTCTTGATTCGCTTGACGCTGCTG | 2.53 z-score |
